{"data": "Results of several laboratories", "Histone acetyltransferase RTT109 with Vps75": "Histone acetyltransferase RTT109, with Vps75 (Saccharomyces cerevisiae, UniProt Q07794)", "uncharacterized protein": "uncharacterized protein (Pelagibacter ubique, UniProt Q4FLC8)", "ALDH2": "Aldehyde dehydrogenase, mitochondrial (ALDH2, Homo sapiens, UniProt P05091)", "7-alpha-hydroxycholest-4-en-3-one 12-alpha-hydroxylase": "7-alpha-hydroxycholest-4-en-3-one 12-alpha-hydroxylase (Homo sapiens, UniProt Q9UNU6)", "note": "Compare with care: the assays were run in different laboratories. “And” joins repeats or separate records; there may be more than shown. ± gives the spread as reported.", "UniProt P05091, sequence (whole entry, looked up)": "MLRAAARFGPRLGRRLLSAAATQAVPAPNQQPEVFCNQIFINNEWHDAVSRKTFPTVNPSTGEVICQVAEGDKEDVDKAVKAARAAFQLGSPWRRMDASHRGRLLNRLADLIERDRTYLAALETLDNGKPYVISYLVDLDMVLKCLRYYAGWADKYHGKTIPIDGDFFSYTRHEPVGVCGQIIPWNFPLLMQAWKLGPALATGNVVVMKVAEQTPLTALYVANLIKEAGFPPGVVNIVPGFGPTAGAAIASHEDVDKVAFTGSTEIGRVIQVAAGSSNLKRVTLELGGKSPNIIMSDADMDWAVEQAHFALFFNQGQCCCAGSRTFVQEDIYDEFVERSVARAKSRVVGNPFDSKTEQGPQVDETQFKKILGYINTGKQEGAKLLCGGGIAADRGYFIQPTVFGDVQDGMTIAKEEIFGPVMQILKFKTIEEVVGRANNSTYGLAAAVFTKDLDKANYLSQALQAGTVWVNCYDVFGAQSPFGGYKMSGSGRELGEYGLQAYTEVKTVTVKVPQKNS", "UniProt Q9UNU6, sequence (whole entry, looked up)": "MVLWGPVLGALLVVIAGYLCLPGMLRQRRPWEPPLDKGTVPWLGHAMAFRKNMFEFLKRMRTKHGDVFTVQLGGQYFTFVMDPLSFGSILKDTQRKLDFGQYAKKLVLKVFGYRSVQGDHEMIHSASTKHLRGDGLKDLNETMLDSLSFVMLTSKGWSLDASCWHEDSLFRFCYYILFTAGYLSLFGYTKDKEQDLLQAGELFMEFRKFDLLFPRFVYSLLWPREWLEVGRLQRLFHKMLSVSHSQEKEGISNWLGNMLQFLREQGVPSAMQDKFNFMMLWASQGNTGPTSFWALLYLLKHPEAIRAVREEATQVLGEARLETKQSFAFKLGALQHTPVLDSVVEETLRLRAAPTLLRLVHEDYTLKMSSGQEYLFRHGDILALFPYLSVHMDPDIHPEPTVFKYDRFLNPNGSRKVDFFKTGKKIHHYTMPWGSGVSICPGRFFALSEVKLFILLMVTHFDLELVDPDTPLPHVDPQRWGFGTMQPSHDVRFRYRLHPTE", "UniProt Q07794, sequence (whole entry, looked up)": "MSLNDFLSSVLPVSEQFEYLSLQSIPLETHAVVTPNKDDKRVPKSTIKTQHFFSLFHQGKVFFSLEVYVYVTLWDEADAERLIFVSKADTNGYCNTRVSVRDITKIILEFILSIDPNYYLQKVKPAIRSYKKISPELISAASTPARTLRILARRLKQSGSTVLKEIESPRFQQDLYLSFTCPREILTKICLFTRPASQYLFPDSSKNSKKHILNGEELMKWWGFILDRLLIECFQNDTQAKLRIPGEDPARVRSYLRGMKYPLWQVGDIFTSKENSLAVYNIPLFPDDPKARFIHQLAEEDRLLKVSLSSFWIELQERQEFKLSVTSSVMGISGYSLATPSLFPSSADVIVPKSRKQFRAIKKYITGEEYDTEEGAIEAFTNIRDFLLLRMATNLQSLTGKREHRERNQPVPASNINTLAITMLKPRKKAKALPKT", "UniProt Q4WW81, sequence (whole entry, looked up)": "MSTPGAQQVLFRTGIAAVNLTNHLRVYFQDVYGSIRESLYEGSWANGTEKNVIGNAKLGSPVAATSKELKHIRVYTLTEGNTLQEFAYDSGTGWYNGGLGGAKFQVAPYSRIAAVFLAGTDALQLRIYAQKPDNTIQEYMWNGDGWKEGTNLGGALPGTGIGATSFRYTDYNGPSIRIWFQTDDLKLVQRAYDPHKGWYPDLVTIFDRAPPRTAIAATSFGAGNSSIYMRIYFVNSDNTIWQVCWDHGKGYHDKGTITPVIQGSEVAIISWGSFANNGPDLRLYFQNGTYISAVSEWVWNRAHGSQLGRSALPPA", "UniProt P32120, sequence (whole entry, unmodified, looked up)": "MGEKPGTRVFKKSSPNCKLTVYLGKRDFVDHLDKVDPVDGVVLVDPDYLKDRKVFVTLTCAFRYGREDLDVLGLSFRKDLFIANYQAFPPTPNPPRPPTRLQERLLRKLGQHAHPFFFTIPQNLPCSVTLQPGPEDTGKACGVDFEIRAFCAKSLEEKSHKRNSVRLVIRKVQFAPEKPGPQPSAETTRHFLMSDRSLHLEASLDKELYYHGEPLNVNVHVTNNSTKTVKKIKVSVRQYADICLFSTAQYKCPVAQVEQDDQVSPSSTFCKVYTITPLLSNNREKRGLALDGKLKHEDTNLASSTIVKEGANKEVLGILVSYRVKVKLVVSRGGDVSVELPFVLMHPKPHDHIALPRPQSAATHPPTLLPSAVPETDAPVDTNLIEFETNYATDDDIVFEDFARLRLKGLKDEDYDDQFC", "UniProt P31641, sequence (whole entry, unmodified, looked up)": "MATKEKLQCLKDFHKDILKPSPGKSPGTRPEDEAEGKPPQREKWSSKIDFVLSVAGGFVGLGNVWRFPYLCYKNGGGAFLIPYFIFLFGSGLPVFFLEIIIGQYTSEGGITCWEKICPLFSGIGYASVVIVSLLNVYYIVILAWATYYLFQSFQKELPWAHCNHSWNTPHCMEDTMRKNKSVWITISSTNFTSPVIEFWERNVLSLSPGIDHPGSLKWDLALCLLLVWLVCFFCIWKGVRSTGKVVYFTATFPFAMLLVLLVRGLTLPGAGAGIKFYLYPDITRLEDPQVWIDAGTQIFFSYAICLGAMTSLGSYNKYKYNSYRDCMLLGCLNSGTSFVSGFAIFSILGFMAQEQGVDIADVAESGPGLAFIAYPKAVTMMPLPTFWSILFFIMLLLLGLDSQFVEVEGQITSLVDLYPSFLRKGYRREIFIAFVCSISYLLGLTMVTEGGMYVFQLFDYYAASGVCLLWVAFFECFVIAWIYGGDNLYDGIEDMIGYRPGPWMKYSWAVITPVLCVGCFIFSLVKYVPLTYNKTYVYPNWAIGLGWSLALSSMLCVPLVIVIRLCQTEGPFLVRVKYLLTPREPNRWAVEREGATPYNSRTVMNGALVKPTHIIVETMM", "UniProt P42336, sequence (whole entry, looked up)": "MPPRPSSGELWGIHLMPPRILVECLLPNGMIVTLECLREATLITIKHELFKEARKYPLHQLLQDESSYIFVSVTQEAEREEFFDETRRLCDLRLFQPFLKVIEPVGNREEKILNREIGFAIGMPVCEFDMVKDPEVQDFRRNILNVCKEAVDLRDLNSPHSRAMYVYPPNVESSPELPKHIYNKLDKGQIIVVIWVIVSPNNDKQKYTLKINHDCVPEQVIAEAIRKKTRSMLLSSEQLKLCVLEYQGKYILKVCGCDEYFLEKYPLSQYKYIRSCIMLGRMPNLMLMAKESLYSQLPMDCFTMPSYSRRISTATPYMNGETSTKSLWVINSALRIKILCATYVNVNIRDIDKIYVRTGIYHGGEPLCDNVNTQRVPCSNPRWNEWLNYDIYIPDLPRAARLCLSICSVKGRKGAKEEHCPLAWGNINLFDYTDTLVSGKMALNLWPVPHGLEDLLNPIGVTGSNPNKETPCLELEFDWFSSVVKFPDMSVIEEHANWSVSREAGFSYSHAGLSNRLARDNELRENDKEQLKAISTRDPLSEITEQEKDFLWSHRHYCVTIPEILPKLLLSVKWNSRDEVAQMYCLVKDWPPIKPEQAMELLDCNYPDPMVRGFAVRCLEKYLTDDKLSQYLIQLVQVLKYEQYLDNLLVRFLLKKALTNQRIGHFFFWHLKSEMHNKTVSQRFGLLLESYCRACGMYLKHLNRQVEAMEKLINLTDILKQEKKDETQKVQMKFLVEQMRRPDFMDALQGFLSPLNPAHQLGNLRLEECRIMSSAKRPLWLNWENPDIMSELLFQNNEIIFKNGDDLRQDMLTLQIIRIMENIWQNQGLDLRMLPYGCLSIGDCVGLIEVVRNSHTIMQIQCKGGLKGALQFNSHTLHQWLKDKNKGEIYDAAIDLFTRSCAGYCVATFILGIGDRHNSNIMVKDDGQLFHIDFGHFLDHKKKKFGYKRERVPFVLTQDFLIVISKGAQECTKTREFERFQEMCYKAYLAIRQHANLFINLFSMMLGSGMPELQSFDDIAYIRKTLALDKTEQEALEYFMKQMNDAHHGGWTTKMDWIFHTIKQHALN", "UniProt P02754, sequence (whole entry, looked up)": "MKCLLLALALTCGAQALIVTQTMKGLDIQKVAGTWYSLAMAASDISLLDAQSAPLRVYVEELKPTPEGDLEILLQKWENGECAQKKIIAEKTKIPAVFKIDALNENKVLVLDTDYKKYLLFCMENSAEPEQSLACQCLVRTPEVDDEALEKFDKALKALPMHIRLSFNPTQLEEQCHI", "UniProt P52735, sequence (whole entry, looked up)": "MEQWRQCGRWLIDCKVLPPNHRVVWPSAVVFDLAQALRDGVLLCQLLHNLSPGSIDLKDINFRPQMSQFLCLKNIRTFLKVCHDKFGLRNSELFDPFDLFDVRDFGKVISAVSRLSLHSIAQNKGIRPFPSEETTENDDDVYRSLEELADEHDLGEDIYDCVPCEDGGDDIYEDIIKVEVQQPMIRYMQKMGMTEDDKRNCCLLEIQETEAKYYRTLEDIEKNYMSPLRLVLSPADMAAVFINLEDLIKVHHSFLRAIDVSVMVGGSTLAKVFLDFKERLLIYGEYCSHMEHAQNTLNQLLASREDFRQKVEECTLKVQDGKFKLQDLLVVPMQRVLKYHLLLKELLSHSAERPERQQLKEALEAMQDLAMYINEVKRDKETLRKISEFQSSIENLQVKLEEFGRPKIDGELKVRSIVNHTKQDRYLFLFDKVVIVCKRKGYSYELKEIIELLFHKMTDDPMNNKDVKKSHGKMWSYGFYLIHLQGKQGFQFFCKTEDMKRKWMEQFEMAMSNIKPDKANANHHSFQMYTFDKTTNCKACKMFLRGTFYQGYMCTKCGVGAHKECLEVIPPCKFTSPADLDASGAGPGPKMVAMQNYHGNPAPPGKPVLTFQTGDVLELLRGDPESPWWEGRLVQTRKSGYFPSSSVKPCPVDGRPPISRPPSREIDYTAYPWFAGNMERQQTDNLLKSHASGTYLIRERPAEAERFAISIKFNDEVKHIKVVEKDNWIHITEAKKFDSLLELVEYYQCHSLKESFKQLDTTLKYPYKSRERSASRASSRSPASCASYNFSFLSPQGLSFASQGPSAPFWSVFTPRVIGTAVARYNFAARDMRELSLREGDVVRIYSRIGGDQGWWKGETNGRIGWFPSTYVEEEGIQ"}
{"Structure (SMILES)": "CC(C)c1c(-c2cc(F)cc3[nH]ccc23)[nH]c(C(=O)O)c1-c1c(Cl)ccc2[nH]ccc12", "target": "BMI1/RNF2 (Homo sapiens, UniProt P35226+Q99496)", "test": "isothermal titration calorimetry", "endpoint": "Kd", "value": "1700 to 2800 nM"}
{"Structure (SMILES)": "CC1=C[C@H](O)CC(C)(C)[C@H]1/C=C/C(C)=C/C=C/C(C)=C/C=C/C=C(C)/C=C/C=C(C)/C=C/C1=C(C)C[C@@H](O)CC1(C)C", "target": "Beta-lactoglobulin (LGB, Bos taurus, UniProt P02754)", "test": "binding, fluorescence quenching", "test system": "PBS", "setting": "30 min, 303 K", "endpoint": "Kd", "value": "3330 nM"}
{"Structure (SMILES)": "O=S(=O)(Nc1ccc(O)c(Br)c1)c1ccc(F)cc1", "target": "Histone acetyltransferase RTT109 with Vps75", "test": "enzyme activity, inhibitor, HTS, CPM-based, dose response", "endpoint": "IC50", "value": "> 125000 nM"}
{"Structure (SMILES)": "O=C(O)/C=C(/CC(=O)O)C(=O)O", "target": "uncharacterized protein", "test": "binding, direct isothermal titration calorimetry", "test system": "Candidatus Pelagibacter ubique", "setting": "with: MgSO4 53 mM", "endpoint": "Kd", "value": "3480 ± 490 nM"}
{"Structure (SMILES)": "COc1ccc(Sc2nsc(N)n2)cc1", "target": "Histone acetyltransferase RTT109 with Vps75", "test": "enzyme activity, inhibitor, HTS, CPM-based, dose response", "endpoint": "IC50", "value": "> 125000 nM"}
{"Structure (SMILES)": "CO[C@@H]1O[C@@H](C)[C@@H](O)[C@@H](O)[C@@H]1O", "target": "fleA (Aspergillus fumigatus, UniProt Q4WW81)", "test": "isothermal titration calorimetry", "endpoint": "Kd", "value": "40300 nM"}
{"Structure (SMILES)": "Nc1ccccc1NC(=O)c1ccc(CNC(=O)OCc2cccnc2)cc1", "target": "ALDH2", "test": "inhibitor, competition pulldown", "test system": "SW620 and MV4-11 lysate", "setting": "1 h", "endpoint": "Kd", "value": "> 30200 nM"}
{"Structure (SMILES)": "CCCN1CCN(c2ccc(-c3cncc(Cl)c3N3CCC4(CCNC4=O)CC3)cc2)CC1", "target": "MED12 human", "test": "SILAC competition", "test system": "LS174T-L5 lysate", "endpoint": "Kd", "value": "7 nM"}
{"Structure (SMILES)": "Cc1ccc(S(=O)(=O)OC[C@H]2CO[C@](Cn3ccnc3)(c3ccc(Cl)cc3Cl)O2)cc1", "target": "7-alpha-hydroxycholest-4-en-3-one 12-alpha-hydroxylase", "test": "binding", "setting": "20 min, pH 7.4", "endpoint": "Kd", "value": "777 nM"}
{"Structure (SMILES)": "C=CC(=O)N1CCN(c2nc(OC[C@@H]3CCCN3C)nc3c(F)c(-c4nc(N)cc(C)c4C(F)(F)F)c(Cl)cc23)[C@@H](C)C1", "target": "GTPase KRas, GDP-bound (KRAS, Homo sapiens, UniProt P01116, G13D)", "test": "SPR", "endpoint": "Kd", "value": "567 ± 36 nM"}
{"Structure (SMILES)": "CCC(=O)N1CCC(C(=O)N(C)CC(=O)N2CCN(c3nc(-c4cnc(N)nc4C(F)F)nc(N4CCOCC4)n3)CC2)CC1", "target": "Phosphatidylinositol 4,5-bisphosphate 3-kinase catalytic subunit alpha isoform (PIK3CA, Homo sapiens, UniProt P42336)", "endpoint": "Kd", "value": "0.37 ± 0.13 nM"}
{"Structure (SMILES)": "O=P(O)(O)O[C@H]1[C@H](OP(=O)(O)O)[C@@H](OP(=O)(O)O)[C@H](OP(=O)(O)O)[C@@H](OP(=O)(O)O)[C@H]1OP(=O)(O)O", "target": "Beta-arrestin-2 (ARRB2, Bos taurus, UniProt P32120, K108Q/K11A/K12A/K161Q/K295Q/R8Q)", "test": "binding, microscale thermophoresis", "endpoint": "Kd", "value": "20 nM"}
{"Structure (SMILES)": "CCOC(=O)c1c(NC(=O)CNC(C)C)sc2c1CCCCC2", "target": "Glycogen synthase kinase-3 beta (GSK3B, Homo sapiens, UniProt P49841)", "endpoint": "Kd", "value": "~1230 nM"}
{"Structure (SMILES)": "CCN(CC)Cc1ccc2cc(COC(=O)Nc3ccc(C(=O)NO)cc3)ccc2c1", "target": "ALDH2", "test": "inhibitor, competition pulldown", "test system": "SW620 and MV4-11 lysate", "setting": "1 h", "endpoint": "Kd", "value": "> 30200 nM"}
{"Structure (SMILES)": "C=C1CCN([C@H](C)[C@](O)(Cn2cncn2)c2ccc(F)cc2F)CC1", "target": "7-alpha-hydroxycholest-4-en-3-one 12-alpha-hydroxylase", "test": "binding", "setting": "20 min, pH 7.4", "endpoint": "Kd", "value": "38700 nM"}
{"Structure (SMILES)": "O=C(/C=C/c1cccc(S(=O)(=O)Nc2ccccc2)c1)NO", "target": "ALDH2", "test": "inhibitor, competition pulldown", "test system": "SW620 and MV4-11 lysate", "setting": "1 h", "endpoint": "Kd", "value": "> 30200 nM"}
{"Structure (SMILES)": "O=C(OCC1COC(Cn2ccnc2)(c2ccc(Cl)cc2Cl)O1)c1ccccc1 (stereo not shown)", "target": "7-alpha-hydroxycholest-4-en-3-one 12-alpha-hydroxylase", "test": "binding", "setting": "20 min, pH 7.4", "endpoint": "Kd", "value": "2600 nM"}
{"Structure (SMILES)": "O=C(O)CC(O)(CC(=O)O)C(=O)O", "target": "uncharacterized protein", "test": "binding, competition isothermal titration calorimetry", "test system": "Candidatus Pelagibacter ubique", "setting": "with: cis-aconitate 1 mM competitor, MgSO4 53 mM", "endpoint": "Kd", "value": "0.693 nM and 0.698 nM"}
{"Structure (SMILES)": "O=C(CCCCCCNC(=O)c1cnc(N(c2ccccc2)c2ccccc2Cl)nc1)NO", "target": "ALDH2", "test": "inhibitor, competition pulldown", "test system": "SW620 and MV4-11 lysate", "setting": "1 h", "endpoint": "Kd", "value": "1530 nM"}
{"Structure (SMILES)": "CC[C@H](C)[C@H](NC(=O)[C@H](CC(C)C)NC(=O)[C@H](Cc1ccc(OP(=O)(O)O)cc1)NC(=O)[C@H](CCC(=O)O)NC(=O)[C@H](CC(=O)O)NC(=O)[C@H](C)NC(=O)[C@H](CC(=O)O)NC(=O)[C@@H](NC(=O)[C@@H](NC(=O)[C@H](CC(=O)O)NC(=O)[C@H](CC(=O)O)NC(=O)[C@H](CCSC)NC(=O)c1ccc2c(c1)C(=O)OC21c2ccc(N(C)C)cc2Oc2cc(N(C)C)ccc21)C(C)C)C(C)C)C(=O)N1CCC[C@H]1C(=O)N[C@@H](CCC(N)=O)C(=O)N[C@@H](CCC(N)=O)C(=O)NCC(=O)N[C@@H](Cc1ccccc1)C(=O)N[C@@H](CC(=O)O)C(=O)O", "target": "Guanine nucleotide exchange factor VAV2, SH2 domain (VAV2, Homo sapiens, UniProt P52735)", "test": "binding", "endpoint": "Kd", "value": "85 nM"}
{"Structure (SMILES)": "OC[C@H]1O[C@@](CO)(O[C@H]2O[C@H](CO)[C@@H](O)[C@H](O)[C@H]2O)[C@@H](O)[C@@H]1O", "target": "Fructooligosaccharide ABC transporter substrate-binding protein FusA (fusA, Streptococcus pneumoniae serotype 4, UniProt A0A0H2URD6)", "test": "binder, isothermal titration calorimetry", "setting": "25 °C, wild type", "endpoint": "Kd", "value": "> 300000 nM"}
{"Structure (SMILES)": "O=C(/C=C/c1ccc(CN(CCO)CCc2c[nH]c3ccccc23)cc1)NO", "target": "ALDH2", "test": "inhibitor, competition pulldown", "test system": "SW620 and MV4-11 lysate", "setting": "1 h", "endpoint": "Kd", "value": "> 30200 nM"}
{"Structure (SMILES)": "Nc1ccn([C@@H]2O[C@H](COP(=O)(O)OP(=O)(O)O)[C@@H](O)[C@H]2O)c(=O)n1", "target": "Ribonuclease pancreatic (RNASE1, Bos taurus, UniProt P61823)", "test": "binding, native mass spectrometry", "test system": "solution", "setting": "single-point method, with: protein 0 to 0.5 µM", "endpoint": "Kd", "value": "4100 ± 100 nM"}
{"Structure (SMILES)": "O=C(CCCCCCNC(=O)c1cnc(N(c2ccccc2)c2ccccc2)nc1)NO", "target": "ALDH2", "test": "inhibitor, competition pulldown", "test system": "SW620 and MV4-11 lysate", "setting": "1 h", "endpoint": "Kd", "value": "531 nM"}
{"Structure (SMILES)": "NCCCC(=O)O", "target": "Sodium- and chloride-dependent taurine transporter (SLC6A6, Homo sapiens, UniProt P31641, L306A)", "test": "microscale thermophoresis", "setting": "L306A mutant", "endpoint": "Kd", "value": "740000 ± 1.07e+06 nM"}
{"Structure (SMILES)": "CCCCN(Cc1ccc(C(=O)NO)cc1)C(=O)Nc1ccccc1", "target": "ALDH2", "test": "inhibitor, competition pulldown", "test system": "SW620 and MV4-11 lysate", "setting": "1 h", "endpoint": "Kd", "value": "> 30200 nM"}
{"Structure (SMILES)": "Clc1ccccc1C(c1ccccc1)(c1ccccc1)n1ccnc1", "target": "7-alpha-hydroxycholest-4-en-3-one 12-alpha-hydroxylase", "test": "binding, Soret peak shift titration", "setting": "20% glycerol", "endpoint": "Kd", "value": "1640 nM"}
{"Structure (SMILES)": "O=C(NO)c1cnc(NC2(c3ccccc3)CC2)nc1", "target": "ALDH2", "test": "inhibitor, competition pulldown", "test system": "SW620 and MV4-11 lysate", "setting": "1 h", "endpoint": "Kd", "value": "> 30200 nM"}
{"Structure (SMILES)": "C[C@H](O)C(=O)O", "target": "V20H-R359H zinc sensor protein", "test": "binding, fluorescence lifetime", "setting": "with: 100 µM Zn2+", "endpoint": "Kd", "value": "553000 ± 310000 nM"}
{"Structure (SMILES)": "Cc1[nH]c2ccccc2c1-c1csc(-c2c[nH]c3ccccc23)n1", "target": "Bromodomain-containing protein 4, dephosphorylated (BRD4, Homo sapiens, UniProt O60885)", "test": "microscale thermophoresis", "setting": "Cy5-labelled protein", "endpoint": "Kd", "value": "158000 nM"}
{"Structure (SMILES)": "[N-]=[N+]=NCC1OC(OC2C(N)CC(N)C(OC3OC(CN)C(O)C(O)C3O)C2O)C(O)C(N)C1O (stereo not shown)", "target": "RNA, 5′UU/3′UU internal loops", "test": "RNA binding, fluorescence titration", "setting": "1 h, room temperature, 12 copies of 2×2 loop", "endpoint": "Kd", "value": "300 ± 52 nM"}
{"note": "A few entries again:"}
{"Structure (SMILES)": "CC1=C[C@H](O)CC(C)(C)[C@H]1/C=C/C(C)=C/C=C/C(C)=C/C=C/C=C(C)/C=C/C=C(C)/C=C/C1=C(C)C[C@@H](O)CC1(C)C", "target": "Beta-lactoglobulin (LGB, Bos taurus, UniProt P02754)", "test": "binding, fluorescence quenching", "test system": "PBS", "setting": "30 min, 303 K", "endpoint": "Kd", "value": "3330 nM"}
{"Structure (SMILES)": "O=S(=O)(Nc1ccc(O)c(Br)c1)c1ccc(F)cc1", "target": "Histone acetyltransferase RTT109 with Vps75", "test": "enzyme activity, inhibitor, HTS, CPM-based, dose response", "endpoint": "IC50", "value": "> 125000 nM"}
{"Structure (SMILES)": "O=C(O)/C=C(/CC(=O)O)C(=O)O", "target": "uncharacterized protein", "test": "binding, direct isothermal titration calorimetry", "test system": "Candidatus Pelagibacter ubique", "setting": "with: MgSO4 53 mM", "endpoint": "Kd", "value": "3480 ± 490 nM"}
{"Structure (SMILES)": "COc1ccc(Sc2nsc(N)n2)cc1", "target": "Histone acetyltransferase RTT109 with Vps75", "test": "enzyme activity, inhibitor, HTS, CPM-based, dose response", "endpoint": "IC50", "value": "> 125000 nM"}
